Measured values pooled from the literature.
Each line is one published result; not all experiments were run side by side.
EGFR L858R/T790M: Epidermal growth factor receptor (EGFR, Homo sapiens, UniProt P00533, L858R/T790M)
EGFR: Epidermal growth factor receptor (EGFR, Homo sapiens, UniProt P00533)

| SMILES | target | observed | action | method | medium | concentration | inhibition [%] |
| --- | --- | --- | --- | --- | --- | --- | --- |
| CC(C)[C@H]1NC(=O)C[C@H]2/C=C/CCSSC[C@@H](NC1=O)C(=O)N[C@H](Cc1cccc3ccccc13)C(=O)NCC(=O)O2 | EGFR (Homo sapiens, UniProt P00533, T790M) | enzyme activity | inhibitor | – | – | 10 µM | -1.9 |
| O=C(CN1CN(c2ccccc2)C2(CCN(C(=O)c3cnc4[nH]ncc4c3)CC2)C1=O)NCC(F)(F)F | EGFR L858R/T790M | – | inhibitor | – | – | concentration not given | < 50 |
| CN(/N=C/c1ccccc1C(=O)O)c1nc(-c2ccccc2Cl)cs1 | EGFR | enzyme activity | inhibitor | – | – | 1 µM | -22.3 |
| CS(C)(=O)=Nc1ccc(-c2ccc(-c3nc4cc(O[C@@H]5CO[C@H]6[C@@H]5OC[C@H]6O)[nH]c4cc3F)cc2)cc1 | EGFR L858R/T790M | enzyme activity | inhibitor | – | – | 10 µM | -36 |
| N[C@H](C(=O)N1CCCC1)C1CCN(c2nccc3c(-c4ncc(Cl)cc4Cl)cccc23)CC1 | EGFR | cell-free assay | – | – | – | 10 µM | 6 |
| C[C@H](NCc1ccc(-c2ccc(C(F)(F)F)cc2)cc1)C(N)=O | EGFR | cell-free assay | – | competition with immobilised ligand | – | 1 µM | 0 |
| CN[C@@H]1[C@H](O)[C@H](NC)[C@H]2O[C@]3(O)[C@H](O[C@@H]2[C@H]1O)O[C@H](C)C[C@H]3NC(=O)Cc1cc(Cl)ccn1 | EGFR | – | – | – | – | 10 µM | 18 |
| C=CC(=O)Nc1cc(-c2nn(C3CCC(N4CCN(C(C)=O)CC4)CC3)c3ncnc(N)c23)ccc1Oc1ccccc1 (centres unmarked) | EGFR | – | inhibitor | KiNativ profiling | biochemical | 2 µM | 24.9 |

A few entries again:
| SMILES | target | observed | action | method | medium | concentration | inhibition [%] |
| --- | --- | --- | --- | --- | --- | --- | --- |
| C[C@H](NCc1ccc(-c2ccc(C(F)(F)F)cc2)cc1)C(N)=O | EGFR | cell-free assay | – | competition with immobilised ligand | – | 1 µM | 0 |
